Measured values gathered from unrelated publications.
Lines come from different studies, so protocols differ.
Cell line: OVCAR-8

CC(=O)OC[C@H]1O[C@@H](Sc2sc(C(=O)c3ccc(C)cc3)c(N)c2-c2nc3ccccc3s2)[C@H](OC(C)=O)[C@@H](OC(C)=O)[C@@H]1OC(C)=O
growth (SRB; 10 µM, 48 h; reference: untreated): 58.7%

CC/C=C\C/C=C\C/C=C\C/C=C\C/C=C\C/C=C\CCC(=O)Nc1ccn(C2OC(CO)C(O)C2(F)F)c(=O)n1 (centres unmarked)
GI50 (cell growth or viability, SRB): 34.5 nM

COc1ccc2c(c1)/C(=N\Nc1nnc3n1N=C(c1ccccc1)CS3)C(=O)N2
inhibition (cell growth or viability, SRB; 10 µM): 51%

CCC(=C(c1ccc(Cl)cc1)c1ccc(OCCCN(C)C)cc1)c1ccc(OC)cc1
GI50 (cell growth or viability): 8050 nM

C#CC[C@H](NC(=O)CNC(=O)[C@H](CO)NC(=O)[C@@H]1CCCCNC(=O)CCCC(=O)N[C@@H](CCSC)C(=O)N[C@@H](Cc2ccccc2)C(=O)N2CCC[C@H]2C(=O)N[C@@H](Cc2c[nH]cn2)C(=O)N[C@@H](CCCNC(=N)N)C(=O)N[C@@H](C(C)C)C(=O)N[C@@H]([C@@H](C)O)C(=O)N[C@@H](C)C(=O)N(C)[C@@H](C)C(=O)N1)C(=O)O
p62 accumulation (western blot; concentration not given, added: cisplatin): no effect

COc1ccc(C2=Nn3c(NN=C4C(=O)N(C)c5ccc(Br)cc54)nnc3SC2)cc1
inhibition (cell growth or viability, SRB; 10 µM): 13%

CC(=C(c1ccc(O)cc1)c1ccc(Cl)cc1)c1ccc(Cl)cc1
GI50 (cell growth or viability): 990 nM

CC(=O)OC[C@H]1O[C@@H](Sc2sc(C(=O)c3ccc(Br)cc3)c(N)c2-c2nc3ccccc3s2)[C@H](OC(C)=O)[C@@H](OC(C)=O)[C@@H]1OC(C)=O
growth (SRB; 10 µM, 48 h; reference: untreated): 46.1%

For quick reference, copied from above:
CC(=C(c1ccc(O)cc1)c1ccc(Cl)cc1)c1ccc(Cl)cc1
GI50 (cell growth or viability): 990 nM
